Measured values gathered from unrelated publications.
Protocols differ between the studies behind these lines. ± gives the spread as reported.

`Cc1cc(C(=O)/C(=C\c2ccc(C)c(Cl)c2)c2ccc(C)c(Cl)c2)c(C(=O)N2CCCCC2)c(=O)[nH]1` has an IC50 of greater than 10 µM (A-375; cell growth or viability, MTT; 72 h).
The IC50 of `O=c1[nH]nc(-c2nnc(SCNC3CCCCC3)o2)c2ccccc12` is reported as 49.2 µM (WI-38; cell growth or viability, MTT; 48 h).
The IC50 of `COc1cc(OC)c2c(O)cc(C(=O)NCCCN3CCOCC3)cc2c1` is reported as 14.5 to 25.1 µM (C26, HepG2, MCF7; cytotoxicity, MTT; range over three cell lines).
The IC50 of `CCN(CC)CC1CCN(c2ncc3ncnc(Nc4ccc(F)c(Cl)c4)c3n2)CC1` is reported as 3.1 ± 0.7 µM (H2030 (EGFR wild type); cell viability, Alamar Blue; 120 h).
`CCCCC[C@H](CC(=O)NO)C(=O)N[C@H](C(=O)N1CCC[C@H]1CO)C(C)C` has an IC50 of 0.16 µM (U-937; aminopeptidase activity; with: Ala-AMC 50).
`CCSc1nnc(-c2n[nH]c(=O)c3ccccc23)o1` gave an IC50 of 39.1 µM (WI-38; cell growth or viability, MTT; 48 h).
The IC50 of `Clc1ccc(C2(c3ccc(-c4cn[nH]c4)cc3)CCNCC2)cc1` is reported as 1.4 µM (Raji shCTL; intracellular flow cytometry, item: TRAF1; 24 h, extrapolated, not maximally reduced).
For `Ic1cccc2cnccc12`, the IC50 was 2.1 µM (axotomized mouse DRG neurons; axon degeneration; 16 h).
For `COc1cc(OC)c(Cl)c(NC(=O)N(C)c2cc(Nc3ccc(N4CCN(CC(=O)N[C@H](C(=O)N5C[C@H](O)C[C@H]5C(=O)N[C@@H](C)c5ccc(-c6scnc6C)cc5)C(C)(C)C)CC4)cc3)ncn2)c1Cl`, the IC50 was greater than 10 µM (SNU1079 (no FGFR activation); cell proliferation, CellTiter-Glo; 3 d).
The IC50 of `CCCCCCCCCCCCCC(=O)OC[C@H](COP(=O)([O-])OCC[N+](C)(C)C)OC(=O)CCCCCCCCCCCCC` is reported as greater than 250 µM (NIH 3T3; cell viability, MTT; concentration not given).
With `O=C(CSc1nnc(-c2ccc(NC(=O)c3cccnc3)cc2)o1)Nc1ccc([N+](=O)[O-])cc1` the IC50 was 2.76 µM (RAW264.7; TNF-α release, inhibitor, ELISA; LPS-stimulated).
The IC50 of `N=C(N)NCCC[C@H](NC(=O)[C@H](Cc1c[nH]c2ccccc12)NC(=O)[C@H](CCC(N)=O)NC(=O)[C@H](Cc1c[nH]c2ccccc12)NC(=O)[C@H](CCCNC(=N)N)NC(=O)[C@H](Cc1c[nH]c2ccccc12)NC(=O)[C@H](CCC(N)=O)NC(=O)[C@H](Cc1c[nH]c2ccccc12)NC(=O)[C@@H](N)CCCNC(=N)N)C(N)=O` is reported as 86 µM (Caco-2; cell growth or viability, MTT).
`Nc1nc2sc(CCCCc3ccc(C(=O)N[C@@H](CCC(=O)O)C(=O)O)cc3)cc2c(=O)[nH]1` gave an IC50 of 0.0047 to 0.334 µM (KB and IGROV-1; cell growth).
The IC50 of `CC1(C)[C@@H](O[C@H]2O[C@H](C(=O)O)[C@@H](O)[C@H](O)[C@H]2O[C@@H]2O[C@H](C(=O)O)[C@@H](O)[C@H](O)[C@H]2O)CC[C@]2(C)[C@H]3C(=O)C=C4[C@@H]5C[C@@](C)(C(=O)O)CC[C@]5(C)CC[C@@]4(C)[C@]3(C)CC[C@@H]12` is reported as 330 µg/mL (HFL1; IL-8 production, ELISA; 24 h, with: TNF-α).
The IC50 of `Cc1ccc(NCSc2nnc(-c3nn(CNc4ccc(C)cc4)c(=O)c4ccccc34)o2)cc1` is reported as 62.8 µM (WI-38; cell growth or viability, MTT; 48 h).
With `CC(C)C[C@H]1NC(=O)[C@H](CC(=O)O)NC(=O)CNC(=O)[C@H](CCCNC(=N)N)NC(=O)[C@H](C)NC1=O` the IC50 was 0.67 µM (WM-115; WM-115 cell adhesion, inhibitor; 1 h, with: immobilized CagL^E87A).
For `Oc1ccc(/C=C/c2cccc(O)c2)cc1`, the IC50 was greater than 25 µg/mL (HL-60; ROS generation, inhibitor, DCFH-DA; with: PMA).
`Cc1ccc(C)c(NC(=O)CSc2nnc(-c3ccc(NC(=O)c4cccnc4)cc3)o2)c1` has an IC50 of 14.1 µM (RAW264.7; reactive oxygen species, inhibitor, fluorescence; LPS-stimulated).
With `CCc1ccc(Nc2c(F)cc3c(=O)c(C(=O)O)cn(C4CC4)c3c2[N+](=O)[O-])cc1` the IC50 was 828 µg/mL (Caco-2; cell growth or viability, SRB; 72 h).
`Cn1c(=O)c(/C=C/c2ccccc2Br)nc2ccccc21` has an IC50 of 27.5 µM (HeLa 229; cell growth or viability, MTT; 72 h).
`O=C1Nc2ccc(OC(F)(F)F)cc2C1n1nc(-c2c(O)c3ccccc3oc2=O)cc1-c1ccc(F)cc1` (stereo not shown) gave an IC50 of 0.96 µM (A-375; cell growth or viability, SRB; 72 h).
`COC1=C(OC)[C@H](O)[C@H](C/C=C(\C)CC/C=C(\C)CCC=C(C)C)[C@@H](C)C1=O` has an IC50 of 8.9 µM (Hep3B; cell growth or viability, MTS; 72 h).
`Nn1c(SCC(=O)Nc2ccc(F)cc2)nnc1-c1ccc(NC(=O)c2cccnc2)cc1` has an IC50 of 7.08 µM (RAW264.7; TNF-α release, inhibitor, ELISA; LPS-stimulated).
With `C(=C\c1ccccc1)/c1ccccc1` the IC50 was 340 µM (U-937; cell growth or viability, ATP luminescence; 24 h).
`CNC(=O)c1cc(Oc2ccc(NC(=O)Nc3ccc(Cl)c(C(F)(F)F)c3)cc2)ccn1` has an IC50 of 0.13 µM (MHCC97H with DHFR knockdown; cell viability, MTT).
With `O=C1c2cccc(O)c2C(=O)c2c(O)cc(CO)cc21` the IC50 was 250 µM (U-937; cell growth or viability, ATP luminescence; 24 h).
With `O=C1C(n2nc(-c3c(O)c4ccccc4oc3=O)cc2-c2ccc(F)cc2)c2cc(Br)ccc2N1Cc1ccccc1` (stereo not shown) the IC50 was 1.28 µM (A-375; cell growth or viability, SRB; 72 h).
`O=c1[nH]cc(F)c(=O)[nH]1` gave an IC50 of 12.7 µM (BXPC-3; cell growth or viability, MTT; 72 h).
`Nn1c(SCC(=O)Nc2ccc([N+](=O)[O-])cc2)nnc1-c1ccc(NC(=O)c2cccnc2)cc1` has an IC50 of 3.31 µM (RAW264.7; reactive oxygen species, inhibitor, fluorescence; LPS-stimulated).
`Fc1ccccc1/C=C/c1nc2ccccc2nc1Cl` has an IC50 of greater than 50 µM (HeLa 229; cell growth or viability, MTT; 72 h).
`CCNC(=O)Nc1ccc(S(=O)(=O)Oc2cnccc2C)cc1` has an IC50 of 3 µM (MOLM-13; cell growth or viability, MTT; 48 h).
`Cn1c(=O)c(/C=C/c2ccccc2Cl)nc2ccccc21` has an IC50 of 11.8 µM (HeLa 229; cell growth or viability, MTT; 72 h).
The IC50 of `CC[C@@]1(O)C(=O)OCc2c1cc1n(c2=O)Cc2cc3cc(O)ccc3nc2-1` is reported as 0.241 µM (SW480; cell growth or viability, MTT; 48 h).
The IC50 of `CCN1C(=O)C(n2nc(-c3c(O)c4ccccc4oc3=O)cc2-c2ccc(F)cc2)c2ccccc21` (stereo not shown) is reported as 79.5 µM (A-375; cell growth or viability, SRB; 72 h).
The IC50 of `CCCN1CC(Oc2ccc([C@@H]3c4[nH]c5ccccc5c4C[C@@H](C)N3CC(C)(C)F)cc2)C1` is reported as 0.02 µM (CAMA-1; cell growth or viability; 7 days).
The IC50 of `O=C1Nc2ccccc2C1n1nc(-c2c(O)c3ccccc3oc2=O)cc1-c1ccc(Cl)cc1` (stereo not shown) is reported as 7.13 µM (A-375; cell growth or viability, SRB; 72 h).
The IC50 of `CCN(c1ccc(OC)cc1)c1nc(N)nc2[nH]c3ccccc3c12` is reported as 0.0455 ± 0.001 µM (HeLa transfected with βIII-tubulin; cell growth, SRB).
`C=CCN(CC=C)C(=S)[S][Sn]([S]C(=S)N(CC=C)CC=C)([c]1ccccc1)[c]1ccccc1` has an IC50 of 1.2 µM (WIL2-NS; cell growth or viability, MTT).
The IC50 of `CCCCCCCCCCCCCCCCCC(=O)O[C@H](COC(=O)Cc1c(C)n(C(=O)c2ccc(Cl)cc2)c2ccc(OC)cc12)COP(=O)([O-])OCC[N+](C)(C)C` is reported as 305 µM (MCF-10A; cell growth or viability, SRB; 72 h).
For `O=C(CSc1nnc(-c2ccc(NC(=O)c3cccnc3)cc2)o1)Nc1cccc(Br)c1`, the IC50 was 8.29 µM (RAW264.7; TNF-α release, inhibitor, ELISA; LPS-stimulated).
`CC1(C)CCCC(C)(C2CCC3(C)C2C(O)CC2C4(C)CCC(O)C(C)(C)C4C(OC(=O)NC4CCCCC4)CC23C)O1` (stereo not shown) gave an IC50 of 1.08 µM (Hep3B; HRE reporter gene, inhibitor; 24 h, hypoxia).
The IC50 of `Cc1ccc(C)c(NC(=O)CSc2nnc(-c3ccc(NC(=O)c4cccnc4)cc3)n2N)c1` is reported as 9.64 µM (RAW264.7; IL-6 release, inhibitor, ELISA; LPS-stimulated).
For `Cc1cn(-c2cc(NC(=O)c3ccc(C)c(Nc4nccc(-c5cccnc5)n4)c3)cc(C(F)(F)F)c2)cn1`, the IC50 was 0.1 µM (GIST882; cell growth or viability, resazurin; 72 h).
`CC(C)(O)C(O)Cc1cc(/C=C/c2cc(O)cc(O)c2)ccc1O` (stereo not shown) gave an IC50 of 0.19 µg/mL (HL-60; reactive oxygen species, inhibitor, fluorescence).
For `COc1cccc(/C=C/c2nc3ccccc3[nH]c2=O)c1OC`, the IC50 was 25.3 µM (HeLa 229; cell growth or viability, MTT; 72 h).
`COCC(=O)N1CCc2[nH]c3c(Cl)c(Cl)ccc3c2[C@@H]1C` has an IC50 of roughly 3 µM (THP1-Dual; ISG luciferase reporter, inhibitor; with: dsDNA transfection).
